Assay results gathered from unrelated publications.
A part holds a random share of what one study measured. Substitutions count along the parent as printed.

Sample 1 — target: CCND2, cyclin fold, Cln2 fusion (human); technique: yeast growth competition, sequencing; sample: yeast; setting: weak parent motif; baseline: not given; reading: higher = stronger binding
Starting sequence: PKN2 docking peptide (human); VSAVQKLDFSDTM
| Variant | normalised enrichment score |
| --- | --- |
| VTAVQKLDFSDTM [S2T] | 0.742 |
| VSAVQKLDFSDTQ [M13Q] | 0.521 |
| VSAVQKLDFSSTM [D11S] | 0.45 |
| VSAVQKTDFSDTM [L7T] | -0.00798 |
| VSAVQKLDFSDHM [T12H] | 0.421 |
| VSAVQKLDFYDTM [S10Y] | 0.47 |
| NSAVQKLDFSDTM [V1N] | 0.863 |
| VSAVQKLDFSDTD [M13D] | 0.573 |
| VSAVQKLDFCDTM [S10C] | 0.611 |
| VSAVQRLDFSDTM [K6R] | 0.56 |
| VSAVQKLDFLDTM [S10L] | 0.221 |
| VSQVQKLDFSDTM [A3Q] | 0.31 |
| VSARQKLDFSDTM [V4R] | 0.333 |
| FSAVQKLDFSDTM [V1F] | 0.989 |
| VSAVQKLDFSATM [D11A] | 0.486 |
| VSAVQKLDFSDTK [M13K] | 0.383 |
| VSATQKLDFSDTM [V4T] | -0.183 |
| VSANQKLDFSDTM [V4N] | 0.105 |

Sample 2 — technique: protein-binding microarray; molecule type: double-stranded DNA, one strand shown; sample: in vitro; concentration: 0.8 µM; setting: whole 60-bp probe, no competitor; reading: higher = stronger binding; constant ends, left off below: … GTCTTGATTCGCTTGACGCTGCTG
Target: Centromere-binding protein 1, full length, N-terminal tag (CBF1, Saccharomyces cerevisiae, UniProt P17106, residues 1-351)
Chain of UniProt P17106 (whole entry, looked up): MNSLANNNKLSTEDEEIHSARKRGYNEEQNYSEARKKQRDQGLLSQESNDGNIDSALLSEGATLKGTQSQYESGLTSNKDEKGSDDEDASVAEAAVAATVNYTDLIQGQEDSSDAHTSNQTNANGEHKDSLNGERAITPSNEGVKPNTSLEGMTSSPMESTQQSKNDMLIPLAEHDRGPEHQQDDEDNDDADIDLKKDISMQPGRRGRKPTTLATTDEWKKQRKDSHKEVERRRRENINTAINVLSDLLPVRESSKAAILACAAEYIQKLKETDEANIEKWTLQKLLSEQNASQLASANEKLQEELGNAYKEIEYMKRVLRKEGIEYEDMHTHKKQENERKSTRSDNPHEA
| Oligonucleotide | fluorescence intensity [a.u.] |
| --- | --- |
| GAATGTATATTTGATCACGTATTGAACTGTTACTAG | 942 |
| CTAAAAGCTCAGTCGCGCGTGGCCTTTCTCTATTTC | 465 |
| TGTACGAAGCTATTGCTGGTGACTATAGTAGTTAGG | 531 |
| GAAAAAAGTAAGAATGCACAGGTGACTAGTGGTTAG | 884 |
| CTAACATATATCACAGTCGTGATTGAATTAACATTC | 711 |
| CTAAAGTTAGTTTTTCTGCTGATATATATCTTTTTC | 499 |
| GAAAAACGTATATAAGCGCTGATGTTTTGCTAATAG | 512 |
| GAAATGAATACCCTAAACGTGATAAGTTTGTGCTAG | 965 |
| GAAGGTTAGCTGTCGTGCGTTTGTATTTTTTCGTAG | 498 |
| GAACGTATTCTTGTGCACACGCCTGTTACTTCTTAG | 557 |
| CTACTAGCTCTGCCACTGGTGGTGCTGATAGCGTTC | 509 |
| GAATTTAATTCACGTGACCAGATAAGGGATTTATAG | 27300 |
| CTATACAATGTTGATCTCCTGAGTATTGTTAATTTC | 525 |
| GAAATAATAATCTCTGACGTGAAAAGCGGATCGTAG | 522 |
| GAAGTGGGATACTATCACGACAATGACAGCTGCTAG | 592 |
| CTATGGGCGAAGGTGCACGTTCTGGTATTACACTTC | 599 |
| CTAAATCTCATTTTTTTCGTGATTATTAATTTTTTC | 536 |
| CTATTGTACAGTTTTCACATGACGATTGGAAATTTC | 797 |
| GAACATTTCTCTGCTCACGTTTAATAACAGGGTTAG | 826 |

Sample 3 — technique: RNA Bind-n-Seq; molecule type: RNA; sample: in vitro; concentration: 200 nM; setting: whole 134-nt RNA, ends assumed; added: 150 mM KCl; baseline: input library; reading: higher = stronger binding
Target: Ras GTPase-activating protein-binding protein 1, full length (G3BP1, Homo sapiens, UniProt Q13283)
Chain of UniProt Q13283 (whole entry, looked up): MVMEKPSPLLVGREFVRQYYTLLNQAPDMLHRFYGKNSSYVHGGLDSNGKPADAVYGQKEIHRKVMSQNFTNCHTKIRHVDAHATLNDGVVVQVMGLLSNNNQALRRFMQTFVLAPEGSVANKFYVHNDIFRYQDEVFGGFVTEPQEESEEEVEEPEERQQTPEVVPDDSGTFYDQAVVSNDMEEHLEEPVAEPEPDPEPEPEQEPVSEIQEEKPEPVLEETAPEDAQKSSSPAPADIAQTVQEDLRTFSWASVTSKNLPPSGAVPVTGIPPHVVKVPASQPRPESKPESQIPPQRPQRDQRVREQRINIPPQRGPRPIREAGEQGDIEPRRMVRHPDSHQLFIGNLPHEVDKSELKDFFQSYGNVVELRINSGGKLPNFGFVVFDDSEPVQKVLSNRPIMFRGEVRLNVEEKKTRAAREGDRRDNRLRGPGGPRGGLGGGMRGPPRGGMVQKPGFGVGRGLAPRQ
Constant ends, left off below: GGGAGUUCUACAGUCCGACGAUC … UGGAAUUCUCGGGUGUCAAGG
| Oligonucleotide | log2 enrichment |
| --- | --- |
| AGUCCUGUGCUACACAUCGUAUGUACCGAAUCGGGAGGGAAAAAAAGGGUUUUUGGGAAAGUAUUAUGUUACGCCGUUCGGAUCUGCACU | -0.154 |
| UGGGAGGUGGAUUUUGUUUAUUUUUUUAGCUCAUUUCCAGGGGAGGGAAUUUUUUUUUAAUAUGUGUCAUGAAUAAAGUUGUUUUUGAAA | 0.217 |
| GCAGGAAGUAAAAACAAAUGGAAAUGCUUCGGAUAGCGGCAGGGGUGGGGGUUGCUAAGGAAAGGGUGGGAUGGGAGUGGGUAAAGAGUU | 1.05 |
| CAAGUCCUGUGCUACACAUCGUAUGUACCGAAUCGGAAAAAAAGGUUUGGAAAGGAAAGUAUUAUGUUACGCCGUUCGGAUCUGCACUUC | -1.58 |
| UGGGAGGUGGAUUUUGUUUAUUUUUUUAGCUCAUUUCCAGGGGUGGGAAUUUUUUUUUAAUAUGUGUCAUGAAUAAAUUUGUUUUUGAAA | 0.377 |
| GUCAAGUGCUUCUGCUCCUGAUGUGGAUGACCCAGAGGCAUUCCCAGCUCUGGCUUAACUGGAUGCCAUAAGACAACCCUGGUUCCUUUG | 0.51 |
| AGUCCUGUGCUACACAUCGUAUGUACCGAAUCAAAGUGUGUGUGUGUGUGUGUGUAAAAAAGUAUUAUGUUACGCCGUUCGGAUCUGCAC | 0.272 |
| UGUGCUACACAUCGUAUGUACCGAAUCGGGUUUUUUUGGGGUUUUUUUGGGGUUUUUUUGGGGAAAGUAUUAUGUUACGCCGUUCGGAUC | -0.658 |
| ACCAUGCAGGUGGGCAUCUUUGGGAAGUGGGGCAAGGGGGGGAUAGGAAGGGGGGUAACACUUUGGGAACAGGUGGUCCCAGGUCGUUUC | 1.01 |

Sample 4 — technique: DHFR PCA, deep sequencing; sample: yeast; added: (+)-ABA 0.032 µM; baseline: wild-type fitted maximum; reading: higher = stronger binding
Target: ABI1, truncated, D143A, DHFR fusion (Arabidopsis thaliana)
Setting: methotrexate growth selection, single substitutions
Starting sequence: PYL1, truncated, DHFR fusion (Arabidopsis thaliana); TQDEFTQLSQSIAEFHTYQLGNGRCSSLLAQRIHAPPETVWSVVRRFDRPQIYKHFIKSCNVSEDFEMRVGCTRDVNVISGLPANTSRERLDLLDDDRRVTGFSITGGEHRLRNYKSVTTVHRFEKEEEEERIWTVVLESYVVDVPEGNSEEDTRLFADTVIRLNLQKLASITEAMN; partner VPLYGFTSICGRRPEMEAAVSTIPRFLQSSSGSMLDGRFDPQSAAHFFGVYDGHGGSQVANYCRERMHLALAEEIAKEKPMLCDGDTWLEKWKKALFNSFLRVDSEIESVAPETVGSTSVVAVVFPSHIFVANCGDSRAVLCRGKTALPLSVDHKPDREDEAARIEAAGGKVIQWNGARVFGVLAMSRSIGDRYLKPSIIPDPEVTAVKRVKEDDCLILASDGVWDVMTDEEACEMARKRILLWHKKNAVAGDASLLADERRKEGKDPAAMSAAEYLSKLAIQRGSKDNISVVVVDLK
| Variant | relative binding score [%] |
| --- | --- |
| Q51F | -14.5 |
| E14W | -0.612 |
| S140K | 1.79 |
| D144Q | -0.757 |
| D144I | -4.09 |
| E174C | 0.983 |
| L91T | -3.1 |
| N22E | 51.7 |
| D159V | 1.22 |
| M68F | 4.9 |
| N85F | 61.7 |
| V118E | 1.97 |
| E139W | 4.3 |
| A175R | 21.4 |
| F124S | 2.9 |
| A13P | -3.4 |
| A13S | 21.7 |
